Experimental data pooled from the literature.
Several values in a cell are separate wells, animals, samples, runs or records.

| SMILES | cell line | assay | conditions | viability |
| --- | --- | --- | --- | --- |
| COc1cc(N2CCN(C(=O)CCOCCNC(=O)[C@@H]3CCCN3)CC2)ccc1Nc1ncc(Cl)c(Nc2ccccc2P(C)(C)=O)n1 | NCI-H3122 | CCK-8 | 0.25 µM, 48 h | 67% and 66% and 72% |
| O=C(OC[C@@]1(O)C(=O)C=C[C@H]2[C@@H]1[C@H]1C=C[C@@H]2C(=O)[C@]1(O)COC(=O)c1ccccc1)c1ccccc1 | SW480 | cell growth or viability, MTT | 6.25 µg/mL | 89.3% |
| CN1CCCNC(=O)c2cccc(c2)C(=O)NCCCN(C)CCCNc2cccc3c2C(=O)c2cccc(c2C3=O)NCCC1 | Ca9-22 | cell growth or viability, CCK-8 | 0.15 µM, 48 h | 69% |
| COc1ccc(Cn2cc(CO[C@@H]3O[C@H]4[C@H](OC[C@H]4O)[C@H]3N=[N+]=[N-])nn2)cc1 | SU-DHL10 | cytotoxicity, CellTiter-Glo | up to 30 µM, 72 h | not toxic |
| O=CCNCCOn1c(=O)n(OCCNCCO)c(=O)n(OCCNCCOn2c(=O)n(OCCNCCO)c(=O)n(OCCNCCO)c2=O)c1=O | HUVEC | cell growth or viability, MTT | 25 µg/mL, 72 h | 21.8% |
| COc1cc(N2CCN(C(=O)CN)CC2)ccc1Nc1ncc(Cl)c(Nc2ccccc2P(C)(C)=O)n1 | NCI-H3122 | cell growth or viability, CCK-8 | 0.5 µM, 48 h | 17% and 14% |
| Cc1cc(Cl)cc(-c2ccnc3cc(CN4C(=O)C5C(C4=O)C5(C)C)sc23)c1C[C@@H]1CNCCO1 (stereo partly drawn) | CAPAN-1 | cell growth or viability, SRB | 20 µM, 5 days | 0.381% and 0.161% and 0.223% |
| O=C(C=Cc1ccccc1)OC1C=CC(O)C(O)(COC(=O)c2ccccc2)C1O (single isomer, unassigned; (-)) | SW480 | cell growth or viability, MTT | 100 µg/mL | 83.4% |
| COc1cc(OC)c(-c2coc3c4c(cc(O)c3c2=O)OC(C)(C)C=C4)cc1OC | SW480 | cell growth or viability, MTT | 100 µg/mL | 76.3% |
| [BH3-][P+]1(c2ccccc2)CCCCC1 | SW480 | trypan blue | IC50, 72 h | 96% |
| O=C(c1ccc(C(=O)N2CCC(N3CCCC3)CC2)cc1)N1CCC(N2CCCC2)CC1 | HEK-293T/17 | CellTiter-Glo | up to 100 µM, 24 h | not toxic |
| C=C(C)[C@H]1Cc2c(cc(O)c3c2O[C@@H]2COc4cc(OC)c(OC)cc4[C@@H]2C3=O)O1 | SW480 | cell growth or viability, MTT | 100 µg/mL | 94.3% |

Some of these lines once more:
| SMILES | cell line | assay | conditions | viability |
| --- | --- | --- | --- | --- |
| COc1cc(OC)c(-c2coc3c4c(cc(O)c3c2=O)OC(C)(C)C=C4)cc1OC | SW480 | cell growth or viability, MTT | 100 µg/mL | 76.3% |
| [BH3-][P+]1(c2ccccc2)CCCCC1 | SW480 | trypan blue | IC50, 72 h | 96% |
